Experimental data of several laboratories.
Each numbered part is a random draw from the data of one study; scales do not carry over between parts.
Chain of UniProt P42681 (whole entry, looked up): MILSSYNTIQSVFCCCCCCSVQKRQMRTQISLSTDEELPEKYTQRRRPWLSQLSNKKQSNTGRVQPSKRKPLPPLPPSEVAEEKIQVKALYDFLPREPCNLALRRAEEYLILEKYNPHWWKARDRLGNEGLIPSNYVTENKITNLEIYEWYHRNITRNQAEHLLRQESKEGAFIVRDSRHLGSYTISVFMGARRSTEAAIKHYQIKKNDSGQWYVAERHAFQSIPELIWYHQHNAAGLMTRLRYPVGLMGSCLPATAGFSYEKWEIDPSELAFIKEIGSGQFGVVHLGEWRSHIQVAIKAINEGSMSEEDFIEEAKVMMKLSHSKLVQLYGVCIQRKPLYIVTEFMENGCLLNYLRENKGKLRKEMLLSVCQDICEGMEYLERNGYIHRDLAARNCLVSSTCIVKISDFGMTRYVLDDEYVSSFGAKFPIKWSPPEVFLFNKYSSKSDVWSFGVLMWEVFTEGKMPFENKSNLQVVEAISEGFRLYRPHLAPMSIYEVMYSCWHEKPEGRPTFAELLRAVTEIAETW
Chain of UniProt P08581 (whole entry, looked up): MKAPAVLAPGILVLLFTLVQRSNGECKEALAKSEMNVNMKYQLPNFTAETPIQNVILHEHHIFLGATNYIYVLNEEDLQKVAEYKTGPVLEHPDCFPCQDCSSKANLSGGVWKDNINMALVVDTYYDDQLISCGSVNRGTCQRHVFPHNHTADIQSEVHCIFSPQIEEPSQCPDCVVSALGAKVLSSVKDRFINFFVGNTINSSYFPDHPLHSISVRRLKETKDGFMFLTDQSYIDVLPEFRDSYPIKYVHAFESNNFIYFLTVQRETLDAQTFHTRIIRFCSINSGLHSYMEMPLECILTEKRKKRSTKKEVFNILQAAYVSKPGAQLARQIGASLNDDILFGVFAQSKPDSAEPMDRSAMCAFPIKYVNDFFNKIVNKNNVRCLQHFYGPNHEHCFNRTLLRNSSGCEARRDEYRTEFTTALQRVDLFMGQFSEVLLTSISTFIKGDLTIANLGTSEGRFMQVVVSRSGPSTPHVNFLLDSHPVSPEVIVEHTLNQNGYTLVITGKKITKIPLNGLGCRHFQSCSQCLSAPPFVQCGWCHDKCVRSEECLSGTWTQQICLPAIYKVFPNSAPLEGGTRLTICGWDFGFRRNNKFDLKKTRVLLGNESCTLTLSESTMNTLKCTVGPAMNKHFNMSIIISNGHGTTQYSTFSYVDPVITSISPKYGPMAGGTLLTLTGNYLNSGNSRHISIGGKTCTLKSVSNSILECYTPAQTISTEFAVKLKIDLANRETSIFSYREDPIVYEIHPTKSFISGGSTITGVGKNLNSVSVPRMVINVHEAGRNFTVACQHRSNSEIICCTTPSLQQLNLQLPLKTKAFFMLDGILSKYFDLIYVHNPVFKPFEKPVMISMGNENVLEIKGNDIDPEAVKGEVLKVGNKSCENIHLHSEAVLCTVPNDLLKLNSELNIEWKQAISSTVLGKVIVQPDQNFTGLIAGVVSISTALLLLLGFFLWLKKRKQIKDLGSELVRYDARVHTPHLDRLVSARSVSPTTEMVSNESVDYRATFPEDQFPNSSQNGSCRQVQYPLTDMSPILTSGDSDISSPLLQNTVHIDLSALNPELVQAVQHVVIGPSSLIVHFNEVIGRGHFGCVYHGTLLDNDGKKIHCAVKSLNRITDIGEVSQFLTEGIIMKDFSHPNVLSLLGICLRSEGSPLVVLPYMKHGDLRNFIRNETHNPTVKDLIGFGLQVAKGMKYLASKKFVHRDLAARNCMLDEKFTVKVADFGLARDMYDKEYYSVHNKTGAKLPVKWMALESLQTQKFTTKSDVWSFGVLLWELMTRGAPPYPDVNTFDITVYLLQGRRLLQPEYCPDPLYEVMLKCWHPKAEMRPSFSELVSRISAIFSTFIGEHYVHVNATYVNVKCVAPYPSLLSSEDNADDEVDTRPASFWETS
Chain of UniProt Q9H4B4 (whole entry, looked up): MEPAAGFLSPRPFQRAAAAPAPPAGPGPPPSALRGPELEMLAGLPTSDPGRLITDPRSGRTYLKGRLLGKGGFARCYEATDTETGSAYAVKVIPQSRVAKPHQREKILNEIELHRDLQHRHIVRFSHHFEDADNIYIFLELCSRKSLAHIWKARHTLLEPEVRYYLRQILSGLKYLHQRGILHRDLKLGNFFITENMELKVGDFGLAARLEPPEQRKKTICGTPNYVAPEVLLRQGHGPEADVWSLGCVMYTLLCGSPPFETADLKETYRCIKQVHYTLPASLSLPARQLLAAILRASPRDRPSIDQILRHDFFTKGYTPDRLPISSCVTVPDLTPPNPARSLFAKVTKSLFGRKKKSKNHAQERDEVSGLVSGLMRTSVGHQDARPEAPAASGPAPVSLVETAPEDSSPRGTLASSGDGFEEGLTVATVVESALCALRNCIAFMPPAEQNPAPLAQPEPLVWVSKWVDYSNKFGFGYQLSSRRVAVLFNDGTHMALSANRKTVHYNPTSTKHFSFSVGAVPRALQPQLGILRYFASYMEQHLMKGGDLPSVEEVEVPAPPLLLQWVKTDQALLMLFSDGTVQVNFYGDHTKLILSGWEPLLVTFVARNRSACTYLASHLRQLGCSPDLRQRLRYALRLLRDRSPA
Chain of UniProt P31751 (whole entry, looked up): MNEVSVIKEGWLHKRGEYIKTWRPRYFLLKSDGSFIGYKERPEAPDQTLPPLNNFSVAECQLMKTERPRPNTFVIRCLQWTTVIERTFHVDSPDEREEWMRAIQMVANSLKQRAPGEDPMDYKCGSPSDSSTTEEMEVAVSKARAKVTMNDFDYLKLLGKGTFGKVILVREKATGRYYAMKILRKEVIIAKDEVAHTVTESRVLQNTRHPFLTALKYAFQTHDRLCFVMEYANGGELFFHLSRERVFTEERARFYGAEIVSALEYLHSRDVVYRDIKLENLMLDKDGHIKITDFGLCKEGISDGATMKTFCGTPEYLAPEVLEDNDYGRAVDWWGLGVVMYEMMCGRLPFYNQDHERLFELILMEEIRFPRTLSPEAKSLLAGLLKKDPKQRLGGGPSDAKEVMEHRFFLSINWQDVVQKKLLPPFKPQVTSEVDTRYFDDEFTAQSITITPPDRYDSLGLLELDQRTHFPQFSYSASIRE
Chain of UniProt Q6P2M8 (whole entry, looked up): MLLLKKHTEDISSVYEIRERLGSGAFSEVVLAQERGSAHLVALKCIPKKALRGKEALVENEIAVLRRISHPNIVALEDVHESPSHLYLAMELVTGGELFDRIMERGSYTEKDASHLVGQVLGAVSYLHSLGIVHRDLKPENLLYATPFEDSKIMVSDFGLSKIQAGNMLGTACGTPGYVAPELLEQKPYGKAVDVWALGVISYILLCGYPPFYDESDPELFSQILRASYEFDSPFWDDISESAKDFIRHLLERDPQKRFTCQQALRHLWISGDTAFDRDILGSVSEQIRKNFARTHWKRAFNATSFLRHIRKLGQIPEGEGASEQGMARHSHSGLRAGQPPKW
Chain of UniProt O75676 (whole entry, looked up): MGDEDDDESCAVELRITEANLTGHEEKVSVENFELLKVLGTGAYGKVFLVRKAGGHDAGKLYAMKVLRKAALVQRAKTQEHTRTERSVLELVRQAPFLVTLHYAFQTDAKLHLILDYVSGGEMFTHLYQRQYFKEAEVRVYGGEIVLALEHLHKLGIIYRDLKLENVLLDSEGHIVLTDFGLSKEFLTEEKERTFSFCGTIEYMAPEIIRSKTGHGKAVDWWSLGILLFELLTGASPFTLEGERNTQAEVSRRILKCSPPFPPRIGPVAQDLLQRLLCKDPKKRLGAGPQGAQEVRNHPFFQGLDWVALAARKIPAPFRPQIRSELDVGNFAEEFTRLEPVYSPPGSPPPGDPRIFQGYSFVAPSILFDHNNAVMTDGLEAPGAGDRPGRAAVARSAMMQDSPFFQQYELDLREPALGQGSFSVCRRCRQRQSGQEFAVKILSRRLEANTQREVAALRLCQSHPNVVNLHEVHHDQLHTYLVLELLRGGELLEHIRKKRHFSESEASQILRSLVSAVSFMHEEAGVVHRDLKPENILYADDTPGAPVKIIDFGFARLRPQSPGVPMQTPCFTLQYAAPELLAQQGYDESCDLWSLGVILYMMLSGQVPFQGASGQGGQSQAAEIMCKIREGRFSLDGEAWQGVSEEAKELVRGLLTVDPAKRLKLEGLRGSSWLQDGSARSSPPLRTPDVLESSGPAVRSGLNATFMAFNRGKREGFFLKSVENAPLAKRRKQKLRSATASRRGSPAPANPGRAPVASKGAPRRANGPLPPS
Chain of UniProt P28482 (whole entry, looked up): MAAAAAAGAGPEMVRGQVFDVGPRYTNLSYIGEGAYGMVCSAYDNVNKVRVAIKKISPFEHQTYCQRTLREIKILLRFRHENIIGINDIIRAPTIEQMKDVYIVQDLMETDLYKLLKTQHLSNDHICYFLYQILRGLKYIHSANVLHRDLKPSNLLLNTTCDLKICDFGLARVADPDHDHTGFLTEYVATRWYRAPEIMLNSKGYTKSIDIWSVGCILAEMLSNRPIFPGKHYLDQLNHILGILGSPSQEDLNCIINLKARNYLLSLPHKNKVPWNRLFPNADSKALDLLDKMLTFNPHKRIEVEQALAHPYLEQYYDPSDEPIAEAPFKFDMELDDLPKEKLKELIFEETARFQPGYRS

Block 1
Host: mouse
Matrix: microsomes or S9
Tested at: 2 µM
Time: 0.5 h
The remaining compound of `O=S(=O)(Nc1ccc(Br)cc1)C1CCCCC1O` (stereo not shown) is reported as 47.8%.
`Oc1cc(F)cc(CNC2CCCN(c3cc(N4CCOCC4)ncn3)C2)c1` (stereo not shown) has a remaining compound of 3.84%.
With `NC1(c2ccccc2)C(=O)Nc2ccccc2C1=O` (stereo not shown) the remaining compound was 83.8%.
The remaining compound of `CS(=O)(=O)c1nc2c(n1-c1ccccc1)C(=O)C(c1ccccc1)S(=O)(=O)N2Cc1ccccc1` (stereo not shown) is reported as 1.67%.
With `COC(=O)CCNC(=O)CCc1nnc(O)[nH]c1=O` the remaining compound was greater than 99%.
`CC(=O)c1ccc(Nc2nc3ccc(C)cc3n3cnnc23)cc1` has a remaining compound of 59.5%.
For `CCn1ccc(C(=O)Nc2cccn3ncnc23)n1`, the remaining compound was 0.13%.
`CC1CN(C2c3ccccc3-c3ccccc32)CC(C)(C)O1` (stereo not shown) gave a remaining compound of 1.51%.
With `Cc1c(O)ccc2c1oc1c(CC(C)C)c3c(O)nn(C(C)C)c3nc12` the remaining compound was 61.5%.

Block 2
Target: Bromodomain-containing protein 4, BD1 (BRD4, Homo sapiens, UniProt O60885)
Observed: acetyl-histone H4 peptide binding
Technique: AlphaScreen displacement
Tested at: 50 µM
For `COc1ccc(Nc2nc(N)c(C(=O)c3ccc(OC)cc3)s2)cc1`, the inhibition was 69%.
With `COc1ccc(C(=O)Nc2sc3c(c2C(N)=O)CCCC3)cc1OC` the inhibition was 7%.
With `COc1ccc(CCNc2nc(N)nc3[nH]cnc23)cc1OC` the inhibition was 54.2%.
`CCCOc1ccc(NC(=O)Nc2ccc(Cl)c(Cl)c2)cc1` gave an inhibition of 3.85%.
The inhibition of `Cc1c(C(=O)OC(C)C)sc2nc[nH]c(=O)c12` is reported as 1.8%.
For `O=C(Nc1cc(Cl)cc2c1[nH]c1cnccc12)c1cccnc1`, the inhibition was 22.1%.

Block 3
Target: Beta-1 adrenergic receptor (ADRB1, Homo sapiens, UniProt P08588)
Chain of UniProt P08588 (whole entry, looked up): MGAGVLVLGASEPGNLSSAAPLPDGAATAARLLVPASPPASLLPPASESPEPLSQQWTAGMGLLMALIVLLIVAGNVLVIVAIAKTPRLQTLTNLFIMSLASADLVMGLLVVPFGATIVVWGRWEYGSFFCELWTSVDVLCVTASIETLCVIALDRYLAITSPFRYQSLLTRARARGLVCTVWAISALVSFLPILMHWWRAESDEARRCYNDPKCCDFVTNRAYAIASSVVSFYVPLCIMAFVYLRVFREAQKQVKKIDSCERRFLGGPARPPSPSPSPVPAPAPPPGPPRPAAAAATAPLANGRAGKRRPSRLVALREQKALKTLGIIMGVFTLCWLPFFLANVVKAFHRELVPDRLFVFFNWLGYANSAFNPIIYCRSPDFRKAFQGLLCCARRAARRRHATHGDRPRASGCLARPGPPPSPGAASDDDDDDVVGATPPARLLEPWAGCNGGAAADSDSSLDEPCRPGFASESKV
Action: agonist
`O=C1COc2ccc(N3CCOCC3)nc2CN1Cc1ccc(F)cc1` gave an EC50 of no less than 100 µM.
The EC50 of `Cc1cc2c(F)c(Oc3ncnn4cc(OCC(C)O)c(C)c34)ccc2[nH]1` (stereo not shown) is reported as no less than 100 µM.
The EC50 of `Cc1noc2c(-c3cn[nH]c3)cc(-c3cccc(C(F)(F)F)c3)nc12` is reported as no less than 100 µM.
The EC50 of `Nc1nc(N)c2nc(-c3ccccc3)c(N)nc2n1` is reported as no less than 100 µM.
For `c1ccc(-c2nc3c(c(N4CCNCC4)n2)CCC3)cc1`, the EC50 was 3.55 µM.
The EC50 of `Cc1cccc(CCNc2ncc(C(C)(C)C(=O)O)c(N3CCOCC3)n2)n1` is reported as no less than 100 µM.
`COc1cc(O)c2c3c(c(O)cc(C)c13)C(=O)OC2` gave an EC50 of no less than 100 µM.
`CCCC1C=CCN1C(=O)c1cc(-c2ccncc2)nc2ccccc12` (stereo not shown) gave an EC50 of no less than 100 µM.
`CCN(CC)C(=O)c1cc(-c2cnc(C(C)C)nc2)nc2c(C)c(C)ccc12` has an EC50 of no less than 100 µM.
The EC50 of `OC(COc1ccc(CN2CC(N3CCCCC3)C2)cc1)CN1CCCCC1` (stereo not shown) is reported as no less than 100 µM.

Block 4
SMILES: COc1ccc(S(=O)(=O)N(CCO)c2ccccc2CN(C)CC=Cc2ccc(Cl)cc2)cc1
Observed: enzyme activity
Action: inhibitor
Tested at: 0.5 µM
Relative to: control
It gave 98.2% for remaining activity (Hepatocyte growth factor receptor (MET, Homo sapiens, UniProt P08581)).
For Ribosomal protein S6 kinase alpha-4 (RPS6KA4, Homo sapiens, UniProt O75676): remaining activity read 107%.
It gave 96.5% for remaining activity (Cyclin-dependent kinase 1, with cyclin A (CDK1, Homo sapiens, UniProt P06493)).
It gave 97% for remaining activity (Mitogen-activated protein kinase 1 (MAPK1, Homo sapiens, UniProt P28482)).
It gave 99.4% for remaining activity (Serine/threonine-protein kinase PLK3 (PLK3, Homo sapiens, UniProt Q9H4B4)).
For Serine/threonine-protein kinase PAK 3 (PAK3, Homo sapiens, UniProt O75914): remaining activity read 102%.
For Serine/threonine-protein kinase tousled-like 2 (TLK2, Homo sapiens, UniProt Q86UE8): remaining activity read 96.6%.
RAC-beta serine/threonine-protein kinase (AKT2, Homo sapiens, UniProt P31751) — remaining activity: 106%.
It gave 103% for remaining activity (Mitogen-activated protein kinase 11 (MAPK11, Homo sapiens, UniProt Q15759)).
For Calcium/calmodulin-dependent protein kinase type 1B (PNCK, Homo sapiens, UniProt Q6P2M8): remaining activity read 99.8%.
Myosin-IIIb (MYO3B, Homo sapiens, UniProt Q8WXR4) — remaining activity: 90.2%.
G protein-coupled receptor kinase 4 (GRK4, Homo sapiens, UniProt P32298) — remaining activity: 94%.
For Tyrosine-protein kinase TXK (TXK, Homo sapiens, UniProt P42681): remaining activity read 95.6%.
The remaining activity was 99.1% (Serine/threonine-protein kinase DCLK2 (DCLK2, Homo sapiens, UniProt Q8N568)).
It gave 102% for remaining activity (MAP/microtubule affinity-regulating kinase 4 (MARK4, Homo sapiens, UniProt Q96L34)).
